Published values of several laboratories.
Protocols differ between the studies behind these lines. ± marks the error that the study gave.
Nuclear receptor subfamily 2 group C member 2 ligand-binding domain: Nuclear receptor subfamily 2 group C member 2, ligand-binding domain (Homo sapiens, UniProt P49116)
Sequence of UniProt P49116 (whole entry, looked up): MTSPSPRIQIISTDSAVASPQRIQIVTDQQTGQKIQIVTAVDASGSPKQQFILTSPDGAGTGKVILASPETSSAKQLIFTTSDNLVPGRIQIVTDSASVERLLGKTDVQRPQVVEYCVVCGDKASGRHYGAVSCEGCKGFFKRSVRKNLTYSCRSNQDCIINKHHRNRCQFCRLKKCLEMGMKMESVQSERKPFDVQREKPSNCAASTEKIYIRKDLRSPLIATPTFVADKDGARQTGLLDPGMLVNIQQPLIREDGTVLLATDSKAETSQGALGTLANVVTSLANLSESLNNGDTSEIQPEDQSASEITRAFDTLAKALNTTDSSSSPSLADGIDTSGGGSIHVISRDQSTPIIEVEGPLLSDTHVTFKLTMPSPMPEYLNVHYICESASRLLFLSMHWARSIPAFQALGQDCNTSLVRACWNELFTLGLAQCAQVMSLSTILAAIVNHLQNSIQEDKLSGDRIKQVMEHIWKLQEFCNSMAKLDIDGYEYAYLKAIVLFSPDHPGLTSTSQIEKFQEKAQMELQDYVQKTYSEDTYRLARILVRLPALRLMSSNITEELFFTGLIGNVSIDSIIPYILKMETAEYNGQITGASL
Sequence of UniProt P00761 (whole entry, looked up): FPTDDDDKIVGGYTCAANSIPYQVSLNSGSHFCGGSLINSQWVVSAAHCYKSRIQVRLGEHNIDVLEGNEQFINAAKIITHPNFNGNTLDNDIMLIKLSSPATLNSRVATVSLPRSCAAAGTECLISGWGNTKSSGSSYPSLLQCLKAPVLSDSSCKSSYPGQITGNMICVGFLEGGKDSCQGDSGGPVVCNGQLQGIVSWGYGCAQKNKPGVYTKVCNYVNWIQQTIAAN
Sequence of UniProt P08183 (whole entry, looked up): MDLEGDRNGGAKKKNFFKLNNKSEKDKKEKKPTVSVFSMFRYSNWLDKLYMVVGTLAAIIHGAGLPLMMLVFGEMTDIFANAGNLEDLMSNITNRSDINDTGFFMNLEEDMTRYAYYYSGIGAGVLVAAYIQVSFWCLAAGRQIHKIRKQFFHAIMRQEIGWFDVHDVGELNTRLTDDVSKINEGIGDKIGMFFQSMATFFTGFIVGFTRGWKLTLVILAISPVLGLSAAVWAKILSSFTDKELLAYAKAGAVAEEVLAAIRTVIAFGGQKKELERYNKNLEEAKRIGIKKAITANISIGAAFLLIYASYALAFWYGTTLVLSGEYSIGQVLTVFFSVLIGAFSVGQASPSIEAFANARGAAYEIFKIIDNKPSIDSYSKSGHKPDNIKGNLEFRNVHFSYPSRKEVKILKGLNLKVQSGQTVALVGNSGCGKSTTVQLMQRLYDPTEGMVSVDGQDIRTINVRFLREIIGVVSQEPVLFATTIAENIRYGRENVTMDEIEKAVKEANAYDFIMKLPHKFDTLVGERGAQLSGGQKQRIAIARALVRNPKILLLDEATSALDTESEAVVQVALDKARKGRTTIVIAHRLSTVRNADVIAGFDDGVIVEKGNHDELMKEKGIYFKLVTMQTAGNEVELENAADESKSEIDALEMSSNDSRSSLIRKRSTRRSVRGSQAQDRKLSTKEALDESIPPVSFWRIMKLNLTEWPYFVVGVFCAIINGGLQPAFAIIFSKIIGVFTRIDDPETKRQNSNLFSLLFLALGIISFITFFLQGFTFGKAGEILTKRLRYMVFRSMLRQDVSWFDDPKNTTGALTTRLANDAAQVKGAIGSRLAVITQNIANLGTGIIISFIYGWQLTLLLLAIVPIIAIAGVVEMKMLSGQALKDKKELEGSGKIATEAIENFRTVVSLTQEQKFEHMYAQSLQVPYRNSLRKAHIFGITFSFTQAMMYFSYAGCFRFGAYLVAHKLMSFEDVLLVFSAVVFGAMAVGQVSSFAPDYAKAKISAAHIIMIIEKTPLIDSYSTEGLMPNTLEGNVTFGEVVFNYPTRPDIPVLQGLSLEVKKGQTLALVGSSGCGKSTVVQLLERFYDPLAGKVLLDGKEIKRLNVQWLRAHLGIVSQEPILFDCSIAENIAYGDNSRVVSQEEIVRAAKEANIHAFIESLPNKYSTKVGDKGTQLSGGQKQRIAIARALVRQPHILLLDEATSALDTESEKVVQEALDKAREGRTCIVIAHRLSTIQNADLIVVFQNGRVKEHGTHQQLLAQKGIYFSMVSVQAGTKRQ
Sequence of UniProt Q04206 (whole entry, looked up): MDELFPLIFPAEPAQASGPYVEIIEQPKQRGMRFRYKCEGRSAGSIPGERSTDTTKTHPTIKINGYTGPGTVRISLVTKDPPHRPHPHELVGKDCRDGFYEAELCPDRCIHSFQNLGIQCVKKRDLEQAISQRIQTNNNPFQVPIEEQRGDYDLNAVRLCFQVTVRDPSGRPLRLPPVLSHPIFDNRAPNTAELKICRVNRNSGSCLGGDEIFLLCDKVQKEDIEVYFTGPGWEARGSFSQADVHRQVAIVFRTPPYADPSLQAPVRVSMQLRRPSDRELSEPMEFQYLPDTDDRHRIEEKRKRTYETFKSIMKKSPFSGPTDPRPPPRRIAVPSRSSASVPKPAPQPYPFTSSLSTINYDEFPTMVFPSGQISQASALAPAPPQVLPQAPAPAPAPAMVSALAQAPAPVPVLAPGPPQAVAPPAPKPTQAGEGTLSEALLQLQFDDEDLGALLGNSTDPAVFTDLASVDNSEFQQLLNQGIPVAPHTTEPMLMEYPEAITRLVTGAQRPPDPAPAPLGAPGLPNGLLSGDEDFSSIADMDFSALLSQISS
Sequence of UniProt P61981 (whole entry, looked up): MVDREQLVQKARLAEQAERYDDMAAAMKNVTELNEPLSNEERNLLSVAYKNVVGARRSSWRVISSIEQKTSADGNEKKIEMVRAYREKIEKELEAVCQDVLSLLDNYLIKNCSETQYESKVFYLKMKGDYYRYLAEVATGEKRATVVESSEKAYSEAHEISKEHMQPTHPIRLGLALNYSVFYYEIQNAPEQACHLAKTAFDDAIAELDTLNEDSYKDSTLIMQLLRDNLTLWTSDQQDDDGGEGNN

SMILES	target or system	assay	system	setting	how to read	quantity	result
Cc1onc(-c2ccccc2)c1-c1ccc(S(N)(=O)=O)cc1	COS-7	WST-8	–	50 µM, 24 h, 0.1% DMSO, unit not given	baseline: vehicle control	metabolic activity	0.98 ± 0.04
CN1CCN(c2cnc3c(cc(C(=O)NCc4ccc(Cl)cc4)c(=O)n3CC(=O)N3CC(C)(F)C3)n2)C1=O	human cytomegalovirus	–	MRC-5, Davis	–	baseline: CC50 over EC50	selectivity ratio	> 201
COc1cc2c(c(O)c1OC)C(=O)c1c(cc(C)c(O[C@@H]3O[C@H](CO)[C@@H](O)[C@H](O)[C@H]3O)c1OC)C2=O	HepaRG co-cultured with HK-2	MTT	–	133.33 µM, 48 h	baseline: untreated control	cell viability	52.2 ± 10.9%
CNCCN1CCN(c2cnc3c(cc(C(=O)NCc4ccc(Cl)cc4)c(=O)n3CC(=O)N3CC(C)(F)C3)n2)C1=O.Cl	human cytomegalovirus	–	MRC-5, AD169-GFP	–	baseline: CC50 over EC50	selectivity ratio	113
CCN(CC)Cc1cc(Nc2ccnc3cc(Cl)ccc23)ccc1O	COS-7	–	–	100 µM, 24 h, 0.1% DMSO, unit not given	baseline: control	apoptosis	16.4 ± 7.36
CN(C)CCC(c1ccccc1)c1ccccn1 (stereo not drawn)	Nuclear receptor subfamily 2 group C member 2 ligand-binding domain	SPR imaging	–	–	–	Kd	0.000441 µM
Nc1ncn([C@@H]2O[C@H](CO)[C@@H](O)[C@H]2O)c(=O)n1	OCI-Ly1	–	–	1 µM, 120 h	–	viability	135%
Cc1cc(Nc2ccc(S(F)(F)(F)(F)F)cc2)n2nc(C(C)(F)F)nc2n1	Plasmodium falciparum	–	P. falciparum malaria patients	oral, 400 mg	–	patients with cardiac disorders	15.4%
Cc1cc(N)c2c(OCC(C)(C)C(=O)NC(C)C)cccc2n1	Salmonella typhimurium	reverse mutation, plate incorporation	TA100	5000 µg/plate, with rat liver S9	–	mean revertant colonies	79 colonies/plate
C#Cc1cccc(Nc2ncnc3cc(OC)c(OCCCCCCC(=O)NO)cc23)c1	OCI-Ly1	–	–	0.1 µM, 120 h	–	viability	90.7%
CC1(F)CN(C(=O)Cn2c(=O)c(C(=O)NCc3ccc(Cl)cc3)cc3nc(N4CCCC4=O)cnc32)C1	human cytomegalovirus	–	MRC-5, AD169-GFP	–	baseline: CC50 over EC50	selectivity ratio	93.8
CN1C(C(=O)Nc2ccccn2)=C(O)c2sc(Cl)cc2S1(=O)=O	COS-7	–	–	100 µM, 24 h, 0.1% DMSO, unit not given	baseline: control	necrosis	0.57 ± 0.29
CC[C@H](CO)N(CCN(N=O)[C@H](CC)CO)N=O	Salmonella typhimurium	plate incorporation	TA1535, water	5000 µg/plate, without S9 test 2	–	revertant colonies per plate	29 ± 9
COC1CCN(C(=O)c2ccc(C=O)cc2)CC1	YWHAG/RELA, phospho-Ser45 p65 peptide (Homo sapiens, UniProt P61981+Q04206)	ternary complex formation, stabilizer, fluorescence anisotropy	–	–	–	EC50	> 1000 µM
CC[C@H]1[C@@H](O)[C@@H]2[C@H](CC[C@]3(C)[C@@H]([C@H](C)CCNC(=O)NS(=O)(=O)c4ccc(C(C)(C)C)cc4)CC[C@@H]23)[C@@]2(C)CC[C@@H](O)C[C@@H]12	ABCB1 (Homo sapiens, UniProt P08183)	–	human, plasma	dose not given, geometric mean, with: quinidine	–	Vd/F	218 L
COc1c(O)c(C)cc2c1C(=O)c1c(ccc(O)c1O)C2=O	HepaRG co-cultured with HK-2	MTT	–	16.67 µM, 24 h	baseline: untreated control	cell viability	89.3 ± 5.72%
CCCCCCCCC(=O)c1cc(O)c(O)c(O)c1	COS-7	–	–	10 µM, 24 h, 0.1% DMSO, unit not given	baseline: vehicle control	necrotic cells	1.14 ± 0.12
COc1c(O)cc2c(c1O)C(=O)c1c(cc(C)c(O)c1OC)C2=O	HepaRG co-cultured with HK-2	MTT	–	33.33 µM, 24 h	baseline: untreated control	cell viability	95.9 ± 12.1%
CC[C@H](C)[C@H](NC(=O)[C@H](CO)NC(=O)[C@H](Cc1ccc(O)cc1)NC(=O)[C@H](CC(=O)O)NC(=O)[C@H](CO)NC(=O)[C@@H](NC(=O)[C@H](Cc1ccccc1)NC(=O)[C@@H](NC(=O)CNC(=O)[C@H](CCC(=O)O)NC(=O)[C@H](C)NC(=O)[C@H](Cc1ccc(O)cc1)NCC(F)(F)F)[C@@H](C)O)[C@@H](C)CC)C(=O)N[C@@H](C)C(=O)N[C@@H](CCSC)C(=O)N[C@@H](CC(=O)O)C(=O)N[C@@H](CCCCN)C(=O)N[C@H](C(=O)N[C@@H](Cc1c[nH]cn1)C(=O)N[C@@H](CCC(N)=O)C(=O)N[C@@H](CCCCNC(=O)COCCOCCNC(=O)COCCOCCNC(=O)CC[C@H](NC(=O)CCCCCCCCCCCCCCCCC(=O)O)C(=O)O)C(=O)N[C@@H](CC(=O)O)C(=O)N[C@@H](Cc1ccccc1)C(=O)N[C@H](C(=O)N[C@@H](CC(N)=O)C(=O)N[C@@H](Cc1c[nH]c2ccccc12)C(=O)N[C@@H](CC(C)C)C(=O)N[C@@H](CC(C)C)C(=O)N[C@@H](C)C(=O)N[C@@H](CCC(N)=O)C(=O)N[C@@H](CCCCN)C(=O)NCC(=O)N[C@@H](CCCCN)C(=O)N[C@@H](CCCCN)C(=O)N[C@@H](CC(N)=O)C(=O)N[C@@H](CC(=O)O)C(=O)N[C@@H](Cc1c[nH]c2ccccc12)C(=O)N[C@@H](CCCCN)C(=O)N[C@@H](Cc1c[nH]cn1)C(=O)N[C@@H](CC(N)=O)C(=O)N[C@H](C(=O)N[C@H](C(=O)N[C@@H](CCC(N)=O)C(=O)O)[C@@H](C)O)[C@@H](C)CC)C(C)C)[C@@H](C)CC	Trypsin (Sus scrofa, UniProt P00761)	LC-MS, measured: fragment 1-33	–	18 h, pH 8.0, 37 °C, with: trypsin 2.5 mg/mL	–	fragment formed	9%
CCN(CC)CCCC(C)Nc1ccnc2cc(Cl)ccc12 (stereo not drawn)	COS-7	–	–	50 µM, 24 h, 0.1% DMSO, unit not given	baseline: vehicle control	necrotic cells	0.31 ± 0.16
CCc1cc(C(=O)NC)c2nccc(N3CCc4c(cc(Cn5ccnc5)cc4-c4cn(C)nc4C(F)(F)F)C3=O)c2c1	–	measured: UA	Sprague Dawley rat	oral, 100 mg/kg once daily, 7 days	baseline: vehicle	change in clinical chemistry or haematology parameter	-4.8%
CN1CC[C@H](c2c(O)cc(O)c3c(=O)cc(-c4ccccc4Cl)oc23)[C@H](O)C1	COS-7	–	–	100 µM, 24 h, 0.1% DMSO, unit not given	baseline: control	necrosis	0.44 ± 0.17
O=C(C1CCCCC1)N1CC(=O)N2CCc3ccccc3C2C1 (stereo not drawn)	Nuclear receptor subfamily 2 group C member 2 ligand-binding domain	SPR imaging	–	–	–	Kd	0.00244 µM
CC1(F)CN(C(=O)Cn2c(=O)c(C(=O)NCc3ccc(Cl)cc3)cc3nc(N4CCN(CC(=O)O)C4=O)cnc32)C1	human cytomegalovirus	–	MRC-5, AD169-GFP	–	baseline: CC50 over EC50	selectivity ratio	> 31.4
O=C1c2cccc(O)c2C(=O)c2c(O)cc(CO)cc21	HepaRG co-cultured with HK-2	MTT	–	33.33 µM, 24 h	baseline: untreated control	cell viability	92.6 ± 9.17%
CC(C)n1c(/C=C/C(O)CC(O)CC(=O)O)c(-c2ccc(F)cc2)c2ccccc21 (stereo not drawn)	COS-7	–	–	6 µM, 24 h, 0.1% DMSO, unit not given	baseline: vehicle control	apoptotic cells	1.61 ± 0.25
COc1c(O[C@@H]2O[C@H](CO)[C@@H](O)[C@H](O)[C@H]2O)c(C)cc2c1C(=O)c1c(O)cccc1C2=O	HepaRG co-cultured with HK-2	MTT	–	66.67 µM, 48 h	baseline: untreated control	cell viability	60.3 ± 9.01%
CN(C)C(=O)CCc1nc(-c2ccccc2)c(-c2ccccc2)o1	COS-7	WST-8	–	50 µM, 24 h, 0.1% DMSO, unit not given	baseline: vehicle control	metabolic activity	0.96 ± 0.02
COc1c(O)c(C)cc2c1C(=O)c1c(cc(O)c(O)c1O)C2=O	HepaRG co-cultured with HK-2	MTT	–	16.67 µM, 24 h	baseline: untreated control	cell viability	66.7 ± 10.4%
CC1(F)CN(C(=O)Cn2c(=O)c(C(=O)NCc3ccc(Cl)cc3)cc3nccnc32)C1	human cytomegalovirus	–	MRC-5, AD169-GFP	–	baseline: CC50 over EC50	selectivity ratio	> 10.6

Some of these lines once more:
SMILES	target or system	assay	system	setting	how to read	quantity	result
CN1C(C(=O)Nc2ccccn2)=C(O)c2sc(Cl)cc2S1(=O)=O	COS-7	–	–	100 µM, 24 h, 0.1% DMSO, unit not given	baseline: control	necrosis	0.57 ± 0.29
Cc1cc(N)c2c(OCC(C)(C)C(=O)NC(C)C)cccc2n1	Salmonella typhimurium	reverse mutation, plate incorporation	TA100	5000 µg/plate, with rat liver S9	–	mean revertant colonies	79 colonies/plate
Cc1cc(Nc2ccc(S(F)(F)(F)(F)F)cc2)n2nc(C(C)(F)F)nc2n1	Plasmodium falciparum	–	P. falciparum malaria patients	oral, 400 mg	–	patients with cardiac disorders	15.4%
COc1cc2c(c(O)c1OC)C(=O)c1c(cc(C)c(O[C@@H]3O[C@H](CO)[C@@H](O)[C@H](O)[C@H]3O)c1OC)C2=O	HepaRG co-cultured with HK-2	MTT	–	133.33 µM, 48 h	baseline: untreated control	cell viability	52.2 ± 10.9%
